Measurements gathered from unrelated publications.
Target: 1-phosphatidylinositol 3-phosphate 5-kinase (PIKFYVE, Homo sapiens, UniProt Q9Y2I7)

COc1cc(Nc2nccc(-c3cnn4nc(OC)ccc34)n2)cc(C(F)(F)F)c1
remaining binding (binding, competition with immobilised ligand; 1 µM): 81%

COc1c(Cl)cccc1Nc1c(-c2ccncc2C#C[C@@]2(C)CCCN2C(=O)/C=C/CN(C)C)[nH]c2c1C(=O)NCC2
remaining binding (binding, competition with immobilised ligand; 3 µM): 32%

C=CC(=O)N1CCCC(n2c(=O)c3ncccc3n(Cc3ccc(Oc4ccccc4)cc3)c2=O)C1 (centres unmarked)
remaining binding (cell-free assay, competition with immobilised ligand; 1 µM): 76%

CNC(=O)C1CCN(c2cc(C)c(F)cc2NC(=O)c2ccc(-c3cc(O)ccc3C)c(C)c2)CC1
remaining binding (binding, competition with immobilised ligand; 1 µM): 100%

Nc1ncc2c(n1)-c1c([nH]c3ccc(C4=CCOCC4)cc13)CCC2
remaining binding (binding, competition with immobilised ligand; 1 µM): 0%

CC(C)=CC1OC(C)(C)C2C=C3C(=O)C(Cl)=CC(O)C3C3C(O)C4OC4C(=O)C132 (centres unmarked)
remaining binding (cell-free assay, competition with immobilised ligand; 10 µM): 85%

Cc1cnc2nc1Nc1cccc(c1)COC/C=C/COCc1cc(ccc1OCCN1CCOCC1)N2
percent of control (concentration not given): 100%

CS(=O)(=O)Nc1cccc(-c2csc3cnc(Nc4ccc(N5CCN(CCCCCOc6cccc7c6C(=O)N(C6CCC(=O)NC6=O)C7=O)CC5)cc4)nc23)c1 (centres unmarked)
inhibition (probe labelling, inhibitor, KiNativ chemoproteomics; MOLT-4; 1 µM): -0.464%

For quick reference, copied from above:
CC(C)=CC1OC(C)(C)C2C=C3C(=O)C(Cl)=CC(O)C3C3C(O)C4OC4C(=O)C132 (centres unmarked)
remaining binding (cell-free assay, competition with immobilised ligand; 10 µM): 85%
